Experimental data pooled from the literature.
A part holds a random share of what one study measured.
Sequence of UniProt P15056 (whole entry, unmodified, looked up): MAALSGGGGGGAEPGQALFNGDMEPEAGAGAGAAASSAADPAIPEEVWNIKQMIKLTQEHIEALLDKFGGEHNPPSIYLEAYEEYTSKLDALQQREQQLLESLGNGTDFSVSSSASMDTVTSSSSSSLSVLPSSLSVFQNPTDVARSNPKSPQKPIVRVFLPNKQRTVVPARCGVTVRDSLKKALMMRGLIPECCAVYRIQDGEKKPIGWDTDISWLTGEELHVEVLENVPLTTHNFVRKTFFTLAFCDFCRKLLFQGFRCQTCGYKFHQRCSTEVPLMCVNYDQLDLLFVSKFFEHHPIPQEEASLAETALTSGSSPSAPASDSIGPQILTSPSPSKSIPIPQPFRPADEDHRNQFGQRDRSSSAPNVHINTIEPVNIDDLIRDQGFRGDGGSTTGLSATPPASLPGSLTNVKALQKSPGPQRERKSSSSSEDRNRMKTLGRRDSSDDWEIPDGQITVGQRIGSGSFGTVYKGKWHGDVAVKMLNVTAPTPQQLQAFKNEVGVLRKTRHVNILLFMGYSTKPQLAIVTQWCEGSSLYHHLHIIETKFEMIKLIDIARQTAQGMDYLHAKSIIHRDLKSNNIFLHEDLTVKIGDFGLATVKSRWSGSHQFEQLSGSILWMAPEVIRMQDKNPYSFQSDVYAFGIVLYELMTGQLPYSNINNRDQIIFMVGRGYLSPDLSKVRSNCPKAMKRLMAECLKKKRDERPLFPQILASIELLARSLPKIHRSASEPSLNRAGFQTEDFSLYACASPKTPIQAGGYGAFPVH
Sequence of UniProt P42679 (whole entry, looked up): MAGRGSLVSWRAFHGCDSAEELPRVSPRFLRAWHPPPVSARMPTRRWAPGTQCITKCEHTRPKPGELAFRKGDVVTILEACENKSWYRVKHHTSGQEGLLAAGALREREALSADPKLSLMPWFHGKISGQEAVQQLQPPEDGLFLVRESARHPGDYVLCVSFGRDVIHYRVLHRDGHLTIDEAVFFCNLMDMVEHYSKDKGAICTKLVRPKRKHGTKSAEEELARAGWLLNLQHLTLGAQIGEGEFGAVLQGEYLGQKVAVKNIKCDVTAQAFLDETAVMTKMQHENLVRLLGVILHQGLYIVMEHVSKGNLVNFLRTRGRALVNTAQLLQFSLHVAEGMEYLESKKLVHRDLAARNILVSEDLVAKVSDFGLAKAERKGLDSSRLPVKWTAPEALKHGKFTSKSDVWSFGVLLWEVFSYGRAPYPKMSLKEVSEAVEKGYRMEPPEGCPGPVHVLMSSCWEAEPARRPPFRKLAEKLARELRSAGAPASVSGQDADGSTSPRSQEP
Sequence of UniProt P31751 (whole entry, unmodified, looked up): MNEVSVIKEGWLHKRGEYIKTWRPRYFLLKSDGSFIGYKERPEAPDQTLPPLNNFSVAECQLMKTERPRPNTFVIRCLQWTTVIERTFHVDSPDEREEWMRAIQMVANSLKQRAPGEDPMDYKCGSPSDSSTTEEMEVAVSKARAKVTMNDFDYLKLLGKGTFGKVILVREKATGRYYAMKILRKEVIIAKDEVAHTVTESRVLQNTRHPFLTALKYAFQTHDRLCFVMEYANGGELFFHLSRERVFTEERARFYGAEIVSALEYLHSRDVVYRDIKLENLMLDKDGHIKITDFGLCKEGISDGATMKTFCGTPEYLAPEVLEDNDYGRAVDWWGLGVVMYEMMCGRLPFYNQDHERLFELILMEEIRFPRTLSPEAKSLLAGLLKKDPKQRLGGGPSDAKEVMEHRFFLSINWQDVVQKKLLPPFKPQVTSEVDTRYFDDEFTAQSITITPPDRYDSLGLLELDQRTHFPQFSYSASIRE
Sequence of UniProt Q9NYL2 (whole entry, looked up): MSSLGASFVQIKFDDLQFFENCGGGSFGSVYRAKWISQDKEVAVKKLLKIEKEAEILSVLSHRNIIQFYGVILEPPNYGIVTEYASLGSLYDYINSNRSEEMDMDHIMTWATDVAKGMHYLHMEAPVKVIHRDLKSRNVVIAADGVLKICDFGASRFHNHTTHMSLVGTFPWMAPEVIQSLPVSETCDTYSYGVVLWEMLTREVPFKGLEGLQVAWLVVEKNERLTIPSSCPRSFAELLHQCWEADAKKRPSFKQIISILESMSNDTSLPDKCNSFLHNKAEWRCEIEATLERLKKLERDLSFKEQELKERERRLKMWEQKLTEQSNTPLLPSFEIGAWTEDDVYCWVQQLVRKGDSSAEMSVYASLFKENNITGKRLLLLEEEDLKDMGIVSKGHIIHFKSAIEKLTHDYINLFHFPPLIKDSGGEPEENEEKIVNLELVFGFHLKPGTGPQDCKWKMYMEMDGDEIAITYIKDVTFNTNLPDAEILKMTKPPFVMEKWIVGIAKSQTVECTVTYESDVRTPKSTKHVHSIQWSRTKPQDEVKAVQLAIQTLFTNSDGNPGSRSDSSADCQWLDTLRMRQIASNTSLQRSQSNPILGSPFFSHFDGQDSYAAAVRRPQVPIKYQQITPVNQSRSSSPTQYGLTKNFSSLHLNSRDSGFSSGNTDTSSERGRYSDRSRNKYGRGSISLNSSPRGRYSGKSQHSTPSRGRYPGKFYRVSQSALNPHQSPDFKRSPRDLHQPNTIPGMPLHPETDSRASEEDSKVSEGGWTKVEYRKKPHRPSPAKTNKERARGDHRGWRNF
Sequence of UniProt Q02156 (whole entry, looked up): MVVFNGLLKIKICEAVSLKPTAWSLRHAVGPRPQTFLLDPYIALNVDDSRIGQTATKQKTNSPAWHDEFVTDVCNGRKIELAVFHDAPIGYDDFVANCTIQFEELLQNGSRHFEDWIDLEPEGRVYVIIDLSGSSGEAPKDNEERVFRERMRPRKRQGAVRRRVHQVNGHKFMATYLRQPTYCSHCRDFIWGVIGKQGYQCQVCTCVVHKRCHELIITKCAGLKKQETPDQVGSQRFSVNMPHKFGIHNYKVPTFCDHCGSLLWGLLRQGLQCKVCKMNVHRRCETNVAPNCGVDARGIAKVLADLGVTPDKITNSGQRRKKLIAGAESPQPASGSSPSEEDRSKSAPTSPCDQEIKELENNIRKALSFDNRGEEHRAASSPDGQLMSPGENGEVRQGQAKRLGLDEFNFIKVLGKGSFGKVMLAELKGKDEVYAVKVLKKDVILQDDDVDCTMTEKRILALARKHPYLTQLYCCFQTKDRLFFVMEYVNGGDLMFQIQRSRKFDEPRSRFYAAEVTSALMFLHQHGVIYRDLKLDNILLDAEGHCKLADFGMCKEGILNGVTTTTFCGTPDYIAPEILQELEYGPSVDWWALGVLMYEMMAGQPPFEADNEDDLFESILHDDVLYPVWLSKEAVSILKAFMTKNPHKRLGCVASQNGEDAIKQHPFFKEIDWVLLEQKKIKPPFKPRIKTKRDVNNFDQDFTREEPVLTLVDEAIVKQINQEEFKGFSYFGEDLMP
Sequence of UniProt O15146 (whole entry, looked up): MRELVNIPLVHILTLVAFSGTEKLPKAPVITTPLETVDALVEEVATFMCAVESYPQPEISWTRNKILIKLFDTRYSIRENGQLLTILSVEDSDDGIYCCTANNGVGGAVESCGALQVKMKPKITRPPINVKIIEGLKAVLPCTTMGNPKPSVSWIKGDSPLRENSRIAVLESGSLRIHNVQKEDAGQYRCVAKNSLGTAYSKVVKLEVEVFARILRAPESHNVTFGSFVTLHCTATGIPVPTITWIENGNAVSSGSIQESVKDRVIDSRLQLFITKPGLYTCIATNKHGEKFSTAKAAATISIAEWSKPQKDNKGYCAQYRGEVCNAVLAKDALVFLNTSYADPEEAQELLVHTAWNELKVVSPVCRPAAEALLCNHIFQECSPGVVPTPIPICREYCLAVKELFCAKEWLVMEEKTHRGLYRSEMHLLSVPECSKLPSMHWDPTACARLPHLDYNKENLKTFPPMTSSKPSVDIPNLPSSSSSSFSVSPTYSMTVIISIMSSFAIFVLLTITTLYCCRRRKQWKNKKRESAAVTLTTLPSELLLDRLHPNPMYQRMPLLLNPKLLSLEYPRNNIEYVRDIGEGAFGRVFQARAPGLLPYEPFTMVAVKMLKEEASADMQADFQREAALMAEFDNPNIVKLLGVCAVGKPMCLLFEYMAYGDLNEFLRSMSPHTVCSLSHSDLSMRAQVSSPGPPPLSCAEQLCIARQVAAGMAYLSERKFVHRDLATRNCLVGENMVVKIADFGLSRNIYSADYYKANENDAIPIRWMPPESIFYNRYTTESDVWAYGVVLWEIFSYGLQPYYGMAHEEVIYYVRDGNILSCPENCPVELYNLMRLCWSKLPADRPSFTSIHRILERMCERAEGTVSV
Sequence of UniProt P28482 (whole entry, looked up): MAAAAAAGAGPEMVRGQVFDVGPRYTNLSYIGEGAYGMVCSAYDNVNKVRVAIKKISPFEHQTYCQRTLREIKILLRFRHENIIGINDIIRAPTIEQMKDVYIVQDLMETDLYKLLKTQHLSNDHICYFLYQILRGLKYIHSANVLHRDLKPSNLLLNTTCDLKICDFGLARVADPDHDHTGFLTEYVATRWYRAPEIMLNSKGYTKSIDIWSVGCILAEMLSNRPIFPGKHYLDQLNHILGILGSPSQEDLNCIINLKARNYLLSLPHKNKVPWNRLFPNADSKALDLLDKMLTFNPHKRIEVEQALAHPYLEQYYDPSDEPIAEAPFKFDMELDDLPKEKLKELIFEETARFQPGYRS

Set 1 — observed: enzyme activity; action: inhibitor; tested at: 0.5 µM; reference: control
Target: MAP kinase-activated protein kinase 2 (MAPKAPK2, Homo sapiens, UniProt P49137)
Sequence of UniProt P49137 (whole entry, looked up): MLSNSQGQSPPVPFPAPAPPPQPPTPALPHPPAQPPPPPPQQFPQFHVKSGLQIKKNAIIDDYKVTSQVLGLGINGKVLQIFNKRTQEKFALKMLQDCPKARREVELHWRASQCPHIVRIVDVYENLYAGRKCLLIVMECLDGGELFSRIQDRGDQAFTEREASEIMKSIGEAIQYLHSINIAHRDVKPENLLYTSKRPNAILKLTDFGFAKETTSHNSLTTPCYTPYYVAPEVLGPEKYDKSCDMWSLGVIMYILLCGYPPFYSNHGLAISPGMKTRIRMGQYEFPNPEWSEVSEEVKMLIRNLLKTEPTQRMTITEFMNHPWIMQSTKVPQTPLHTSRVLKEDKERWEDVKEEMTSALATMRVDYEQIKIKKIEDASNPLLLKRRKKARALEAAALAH
| Compound | remaining activity |
| --- | --- |
| Cc1nc(-c2ccccc2)c(-c2ccncc2)o1 | 102% |
| CN(C)c1ccc(C=C2C(=O)Nc3ccccc32)cc1 | 106% |
| COc1cc2ncnc(Nc3ccc(F)c(Cl)c3)c2cc1OCCCN1CCOCC1 | 97.5% |
| O=C(O)c1ccc2c3c1cccc3c(=O)n1c3ccccc3nc21 | 102% |
| Oc1ccc(-c2nc(-c3ccncc3)c(-c3ccc(F)cc3)[nH]2)cc1 | 99.2% |
| COc1ccc(C(=O)Nc2sc3c(c2C(N)=O)CCCC3)cc1OC | 104% |
| O=C1NC(=O)C(c2cn(CCCO)c3ncccc23)=C1c1cnccn1 | 91% |
| C#Cc1cccc(Nc2ncnc3cc(OCCOC)c(OCCOC)cc23)c1 | 96.2% |
| COc1cc2nccc(Oc3ccc(NC(=S)NC(=O)c4ccccc4C)cc3)c2cc1OC | 98% |
| OCC(O)CCON=C1C(c2c(O)[nH]c3ccccc23)=Nc2ccccc21 (centres unmarked) | 98.4% |
| O=S(=O)(c1cccc2cnccc12)N1CCCNCC1 | 101% |
| CNC(=O)c1cc(Oc2ccc(NC(=O)Nc3ccc(Cl)c(C(F)(F)F)c3)cc2)ccn1 | 100% |
| CO[C@H]1C[C@@H]2CC[C@@H](C)[C@@](O)(O2)C(=O)C(=O)N2CCCC[C@H]2C(=O)O[C@H]([C@H](C)C[C@@H]2CC[C@@H](O)[C@H](OC)C2)CC(=O)[C@H](C)/C=C(\C)[C@@H](O)[C@@H](OC)C(=O)[C@H](C)C[C@H](C)/C=C/C=C/C=C/1C | 101% |
| Cn1sc(=O)n(Cc2ccccc2)c1=O | 102% |
| O=C(Nc1cccc(Nc2cc(Nc3cccc(C(F)(F)F)c3)ncn2)c1)C1CC1 | 104% |

Set 2 — action: inhibitor; tested at: 5 µM
SMILES: O=C1NC(=O)C(c2cn(-c3ccccc3)nc2-c2ccc(F)cc2)N1 (centres unmarked)
| target | test | test system | conditions | scale | log2 fold change |
| --- | --- | --- | --- | --- | --- |
| Serine/threonine-protein kinase ULK3 (ULK3, Homo sapiens, UniProt Q6PHR2) | kinase activity | – | cell-based kinome screen | reference: vehicle | 0.103 |
| Serine/threonine-protein kinase B-raf (BRAF, Homo sapiens, UniProt P15056, G469E) | cell-based kinome profiling | human cells | – | reference: vehicle control | -0.009 |
| RAC-beta serine/threonine-protein kinase (AKT2, Homo sapiens, UniProt P31751, R274H) | kinase–CDC37 interaction | – | AKT2 R274H mutant | reference: vehicle | -0.232 |
| Protein kinase C eta type, with CDC37 (PRKCH, Homo sapiens, UniProt P24723) | cell-based kinome screen | human cells | – | reference: untreated control | -0.166 |
| Serine/threonine-protein kinase B-raf (BRAF, Homo sapiens, UniProt P15056) | kinase-CDC37 interaction | human cells | – | reference: vehicle | -0.091 |

Set 3 — observed: enzyme activity; tested at: 5 µM; reference: untreated control
Structure (SMILES): O=C(Nc1cnn(-c2csc(C(=O)NC3COC3)c2)c1)Nc1ccccc1Cl
| target | remaining activity [%] |
| --- | --- |
| Lymphokine-activated killer T-cell-originated protein kinase (PBK, Homo sapiens, UniProt Q96KB5) | 112 |
| Serine/threonine-protein kinase VRK1 (VRK1, Homo sapiens, UniProt Q99986) | 98.1 |
| cAMP-dependent protein kinase catalytic subunit beta (PRKACB, Homo sapiens, UniProt P22694) | 97.7 |
| Dual specificity protein kinase CLK1 (CLK1, Homo sapiens, UniProt P49759) | 80.5 |
| Serine/threonine-protein kinase STK11 (STK11, Homo sapiens, UniProt Q15831) | 115 |
| Myotonin-protein kinase (DMPK, Homo sapiens, UniProt Q09013) | 101 |
| Megakaryocyte-associated tyrosine-protein kinase (MATK, Homo sapiens, UniProt P42679) | 97.2 |

Set 4 — observed: cell-free assay; technique: competition with immobilised ligand; tested at: 1 µM
Compound: CN([C@@H]1CCc2c(CC(=O)O)c3ccccc3n2C1)S(=O)(=O)c1ccc(F)cc1
| target | remaining binding [%] |
| --- | --- |
| Ephrin type-A receptor 4 (EPHA4, Homo sapiens, UniProt P54764) | 87 |
| Mitogen-activated protein kinase kinase kinase 20 (MAP3K20, Homo sapiens, UniProt Q9NYL2) | 99 |
| Serine/threonine-protein kinase RIO1 (RIOK1, Homo sapiens, UniProt Q9BRS2) | 100 |
| Muscle, skeletal receptor tyrosine-protein kinase (MUSK, Homo sapiens, UniProt O15146) | 97 |
| Protein kinase C epsilon type (PRKCE, Homo sapiens, UniProt Q02156) | 94 |
| Fibroblast growth factor receptor 3 (FGFR3, Homo sapiens, UniProt P22607) | 100 |
| Mitogen-activated protein kinase 1 (MAPK1, Homo sapiens, UniProt P28482) | 97 |
| Platelet-derived growth factor receptor alpha (PDGFRA, Homo sapiens, UniProt P16234) | 100 |
